# Published values pooled from the literature.
# Every numbered part comes from another study and shows a few of its results, in no order. Positions count from the first letter of the parent shown.

# Sample 1
# Target: RING finger protein unkempt homolog, zinc fingers 1-6, GST-SBP tag (UNK, Homo sapiens, UniProt Q9C0B0, residues 30-357)
# Method: RNA Bind-n-Seq
# Molecule type: RNA
# Medium: in vitro
# Concentration: not given
# Notes: RNA with constant flanks, ends assumed
# Reference: input RNA pool
# Reading: higher = stronger binding
# All sequences stand within: GGGAGUUCUACAGUCCGACGAUC … CAACAGAGGAUUGAGCAUCA
# Construct (chain): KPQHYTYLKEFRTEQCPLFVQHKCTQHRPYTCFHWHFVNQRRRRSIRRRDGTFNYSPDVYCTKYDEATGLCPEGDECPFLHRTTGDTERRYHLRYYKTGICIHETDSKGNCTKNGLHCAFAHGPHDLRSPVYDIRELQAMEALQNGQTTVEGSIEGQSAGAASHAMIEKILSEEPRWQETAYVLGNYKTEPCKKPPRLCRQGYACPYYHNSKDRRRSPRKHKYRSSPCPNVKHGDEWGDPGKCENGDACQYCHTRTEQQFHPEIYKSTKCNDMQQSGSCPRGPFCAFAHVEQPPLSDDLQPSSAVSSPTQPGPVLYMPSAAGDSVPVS
Oligonucleotide,bound/input enrichment [ratio]
GCUGGAAAUAGGGCACAGAUCCAGACUGUGAUAGAUGCUAACAUGUUCCCAGCUCUUAUCCGUAUAUUGCAAACAGCAGAGUUCCGGACAAGGAAGGAAGCUGCUUGGGCCAUCACAAAU,0.241
AAACAUAACAUAUCUUUAAAGCUUUUCUAUCUUCUUUUGAAAUUUGGACCAAUAAAAUUCCCGGUGAUAUGGAGGAUUGUAUUGCUCAACUUCUCAUAGUGAGACAACACGUAACAAAAC,2.75
UUCUGUUUGUGCCCAGUGAUGUCUUUCCUUGUCUUCCUUUUGACUGUAUUUUAAGAUUACUUCCGAUGAUUCUGUGCAAUGUUUAUGACCUUUCCUACCCUUCUAAUGUUCAGUUAACAC,0.59
AACUUCUCUGACUACAUCCGUGGAGGCAUCGUCAGUCAGGUCAAAGUACCGAAAAAGAUCCGUUUUAAAUCCUUGCCAGCAUCACUGGUAGAGCCUGACUUUGUGAUGACUGACUUUGCC,0.0927
AAGACUGUCGACCUAAAGCCUGACUGGGGCAAGGGCUAUUCACGAAAAGCAGCAGCUCCCGAGUUCUUAAACCGCUUUGAAGAAGCCAAGCGAACCUAUGAGGAGGGCUUAAAACACGAG,0.166
UGCUAGCUCAAGAAGCACCAGAGGUAUAUACAGAGUAUUGGGAUCAGAUCCAGGAUCCAUAACCGUUUCUCACCUUGAAUCAAGGAUUUAUAUGAUAUUCUUCUCAGAUUUACUUUGUGU,0.123

# Sample 2
# Target: Sal-like protein 4, full length isoform A (SALL4, Homo sapiens, UniProt Q9UJQ4, residues 1-1053)
# Chain of UniProt Q9UJQ4 (whole entry, looked up): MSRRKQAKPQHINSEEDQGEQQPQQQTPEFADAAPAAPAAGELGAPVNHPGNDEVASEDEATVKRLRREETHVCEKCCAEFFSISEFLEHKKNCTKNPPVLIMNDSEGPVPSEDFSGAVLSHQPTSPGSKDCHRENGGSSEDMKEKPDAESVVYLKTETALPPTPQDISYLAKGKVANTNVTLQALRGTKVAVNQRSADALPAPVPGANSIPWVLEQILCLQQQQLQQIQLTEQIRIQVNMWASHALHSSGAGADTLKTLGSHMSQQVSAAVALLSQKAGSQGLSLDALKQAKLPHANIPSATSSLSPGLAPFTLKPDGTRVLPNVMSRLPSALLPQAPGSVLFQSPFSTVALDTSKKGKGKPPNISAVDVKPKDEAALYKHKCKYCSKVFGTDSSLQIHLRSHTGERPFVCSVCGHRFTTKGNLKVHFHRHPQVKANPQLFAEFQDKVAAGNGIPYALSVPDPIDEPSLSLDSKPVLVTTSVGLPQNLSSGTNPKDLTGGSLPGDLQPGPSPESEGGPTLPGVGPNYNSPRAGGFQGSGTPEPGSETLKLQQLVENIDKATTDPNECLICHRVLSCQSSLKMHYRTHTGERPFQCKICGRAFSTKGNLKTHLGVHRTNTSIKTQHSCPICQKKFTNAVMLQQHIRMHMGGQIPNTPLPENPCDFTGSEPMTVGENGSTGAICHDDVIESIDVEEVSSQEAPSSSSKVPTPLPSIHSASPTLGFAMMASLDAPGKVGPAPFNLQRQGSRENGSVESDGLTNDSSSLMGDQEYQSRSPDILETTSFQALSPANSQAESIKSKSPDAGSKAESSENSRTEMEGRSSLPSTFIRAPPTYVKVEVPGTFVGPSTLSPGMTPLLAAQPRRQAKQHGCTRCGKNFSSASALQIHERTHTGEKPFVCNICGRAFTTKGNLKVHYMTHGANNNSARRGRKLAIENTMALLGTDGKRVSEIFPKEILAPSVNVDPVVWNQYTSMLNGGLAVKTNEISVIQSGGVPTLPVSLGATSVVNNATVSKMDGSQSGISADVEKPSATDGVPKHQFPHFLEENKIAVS
# Method: universal PBM
# Molecule type: double-stranded DNA, one strand shown
# Medium: in vitro
# Concentration: 600 nM
# Notes: 8-mer, flanks averaged, mean of replicates
# Reading: higher = stronger binding
Oligonucleotide,E-score
GCTATTCC,-0.179
CTTCGATC,-0.101
AACTTGGA,-0.0271
ATCTCTGA,-0.00305
AATTCGTC,0.0491
CGGACGGA,-0.328
CGGTGTGA,-0.23
AGAGTTTC,-0.103
CACTTCTC,-0.121
CATCGTGG,-0.255
GAACAGAA,0.0642
ACCCGACT,-0.12
CGGGCATC,-0.364
GACCTACC,-0.249
ATGTTACC,0.0886
CTACTATA,0.309

# Sample 3
# Target: ABI1, truncated, D143A, DHFR fusion (Arabidopsis thaliana)
# Method: DHFR PCA, deep sequencing
# Medium: yeast
# Notes: methotrexate growth selection, single substitutions
# Together with: (+)-ABA 0 µM
# Reference: wild-type fitted maximum
# Reading: higher = stronger binding
# Starting sequence: PYL1, truncated, DHFR fusion (Arabidopsis thaliana); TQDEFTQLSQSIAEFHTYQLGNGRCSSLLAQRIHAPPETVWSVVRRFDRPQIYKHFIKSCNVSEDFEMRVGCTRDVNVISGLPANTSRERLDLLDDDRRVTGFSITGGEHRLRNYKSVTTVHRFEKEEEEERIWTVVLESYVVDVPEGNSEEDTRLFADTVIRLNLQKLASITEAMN; partner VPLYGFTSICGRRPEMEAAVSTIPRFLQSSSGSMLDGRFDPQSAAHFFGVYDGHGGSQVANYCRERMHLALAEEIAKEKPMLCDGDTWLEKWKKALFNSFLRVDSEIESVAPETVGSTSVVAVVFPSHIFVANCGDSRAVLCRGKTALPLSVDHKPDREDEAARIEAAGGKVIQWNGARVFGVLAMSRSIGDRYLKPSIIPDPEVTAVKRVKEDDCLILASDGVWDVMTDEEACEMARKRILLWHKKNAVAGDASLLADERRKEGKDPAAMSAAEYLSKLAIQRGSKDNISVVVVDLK
Change,relative binding score
L112F,9.04%
T154N,-12%
S80K,1.16%
V100K,-2.85%
V142W,-8.7%
N85L,52.6%
E125I,18.8%
A30Q,6.57%

# Sample 4
# Target: Histone acetyltransferase KAT6A, winged helix 2, GST fusion (KAT6A, Homo sapiens, UniProt Q92794, residues 85-181)
# Method: protein binding microarray
# Molecule type: double-stranded DNA, one strand shown
# Medium: in vitro
# Concentration: not given
# Notes: 8-mer, flanks averaged, mean of 2 arrays, mostly near background
# Reference: not given
# Reading: higher = stronger binding
# Construct (chain): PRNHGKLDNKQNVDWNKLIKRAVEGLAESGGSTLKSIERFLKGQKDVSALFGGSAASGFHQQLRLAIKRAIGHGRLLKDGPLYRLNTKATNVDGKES
Oligonucleotide,E-score
AAGAAATT,0.214
GGGGACTA,0.0713
AATCTGTA,-0.0857
AAAAGGGC,0.0805
ACTGGAGC,0.0139
AAGCTGGT,0.124
TTATTAAA,0.185
CAGACATG,-0.00323
CGGGATTC,0.0784
ATGCCTCA,0.0499
CCAGACGC,-0.0316
CCCGGTCC,0.0381
CACCATCG,-0.0944
GCCCAAAA,0.11
